Assay results gathered from unrelated publications.
Several values in a cell are separate wells, animals, samples, runs or records. Numbers after ± are the reported error.
MKC1: Mitogen-activated protein kinase MKC1 (MKC1, Candida albicans, UniProt P43068)
TOP2A: DNA topoisomerase 2-alpha (TOP2A, Homo sapiens, UniProt P11388)
Sequence of UniProt P11388 (whole entry, looked up): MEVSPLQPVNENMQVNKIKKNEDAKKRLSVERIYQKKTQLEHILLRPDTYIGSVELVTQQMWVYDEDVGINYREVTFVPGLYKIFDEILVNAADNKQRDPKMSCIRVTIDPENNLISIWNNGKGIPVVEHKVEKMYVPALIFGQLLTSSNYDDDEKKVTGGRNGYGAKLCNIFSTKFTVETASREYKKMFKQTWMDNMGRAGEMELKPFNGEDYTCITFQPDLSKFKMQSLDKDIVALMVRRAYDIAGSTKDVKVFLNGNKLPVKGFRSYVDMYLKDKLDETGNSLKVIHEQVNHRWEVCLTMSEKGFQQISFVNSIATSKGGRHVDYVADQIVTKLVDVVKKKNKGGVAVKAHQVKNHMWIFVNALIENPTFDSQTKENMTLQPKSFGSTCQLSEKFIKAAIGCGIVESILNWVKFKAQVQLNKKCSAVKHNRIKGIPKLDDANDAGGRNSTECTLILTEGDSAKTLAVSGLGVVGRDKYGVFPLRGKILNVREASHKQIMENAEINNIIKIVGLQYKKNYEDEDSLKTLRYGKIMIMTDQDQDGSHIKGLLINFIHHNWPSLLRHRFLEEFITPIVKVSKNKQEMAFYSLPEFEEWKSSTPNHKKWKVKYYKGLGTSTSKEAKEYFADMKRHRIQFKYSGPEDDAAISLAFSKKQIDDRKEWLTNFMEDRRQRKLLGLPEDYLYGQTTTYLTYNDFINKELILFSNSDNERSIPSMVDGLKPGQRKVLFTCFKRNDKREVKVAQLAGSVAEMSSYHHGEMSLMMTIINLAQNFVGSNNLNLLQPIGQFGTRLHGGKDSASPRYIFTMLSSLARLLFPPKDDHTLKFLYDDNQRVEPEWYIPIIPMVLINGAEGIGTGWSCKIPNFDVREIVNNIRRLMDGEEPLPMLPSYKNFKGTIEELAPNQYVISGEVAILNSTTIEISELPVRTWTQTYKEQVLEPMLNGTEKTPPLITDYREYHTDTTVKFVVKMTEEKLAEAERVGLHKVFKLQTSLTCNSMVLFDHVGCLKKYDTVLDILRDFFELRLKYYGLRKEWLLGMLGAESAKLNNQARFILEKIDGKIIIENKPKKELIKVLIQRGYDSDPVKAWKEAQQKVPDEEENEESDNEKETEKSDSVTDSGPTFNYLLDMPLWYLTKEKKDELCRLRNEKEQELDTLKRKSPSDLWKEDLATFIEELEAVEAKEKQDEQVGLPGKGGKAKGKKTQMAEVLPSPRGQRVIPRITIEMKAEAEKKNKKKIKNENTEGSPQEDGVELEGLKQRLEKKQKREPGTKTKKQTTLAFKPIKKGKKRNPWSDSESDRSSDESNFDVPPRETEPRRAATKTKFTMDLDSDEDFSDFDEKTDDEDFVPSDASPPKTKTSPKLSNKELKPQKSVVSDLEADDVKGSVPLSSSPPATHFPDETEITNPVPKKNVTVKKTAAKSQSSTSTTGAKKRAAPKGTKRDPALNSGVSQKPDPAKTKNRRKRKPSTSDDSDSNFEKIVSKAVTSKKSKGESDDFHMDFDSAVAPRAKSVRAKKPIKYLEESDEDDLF
PKN1: Serine/threonine-protein kinase N1 (PKN1, Homo sapiens, UniProt Q16512)
BEST2: Bestrophin-2a (BEST2, Homo sapiens, UniProt Q8NFU1)
Sequence of UniProt Q8NFU1 (whole entry, looked up): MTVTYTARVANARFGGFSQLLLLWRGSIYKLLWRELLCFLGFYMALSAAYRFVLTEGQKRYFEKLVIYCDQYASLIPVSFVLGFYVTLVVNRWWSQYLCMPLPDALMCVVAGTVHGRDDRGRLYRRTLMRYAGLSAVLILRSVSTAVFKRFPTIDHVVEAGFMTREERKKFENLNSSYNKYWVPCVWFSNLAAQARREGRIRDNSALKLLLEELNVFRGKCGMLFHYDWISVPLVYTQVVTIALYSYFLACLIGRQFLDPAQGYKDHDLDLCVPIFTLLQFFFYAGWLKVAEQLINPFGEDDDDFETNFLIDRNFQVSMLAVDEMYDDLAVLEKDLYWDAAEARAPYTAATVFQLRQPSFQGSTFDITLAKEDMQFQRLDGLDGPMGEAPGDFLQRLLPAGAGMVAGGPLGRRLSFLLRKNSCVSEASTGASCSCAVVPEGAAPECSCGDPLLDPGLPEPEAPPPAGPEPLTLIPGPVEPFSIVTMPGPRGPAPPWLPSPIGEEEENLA
CD274: Programmed cell death 1 ligand 1 (CD274, Homo sapiens, UniProt Q9NZQ7)
Sequence of UniProt P51575 (whole entry, looked up): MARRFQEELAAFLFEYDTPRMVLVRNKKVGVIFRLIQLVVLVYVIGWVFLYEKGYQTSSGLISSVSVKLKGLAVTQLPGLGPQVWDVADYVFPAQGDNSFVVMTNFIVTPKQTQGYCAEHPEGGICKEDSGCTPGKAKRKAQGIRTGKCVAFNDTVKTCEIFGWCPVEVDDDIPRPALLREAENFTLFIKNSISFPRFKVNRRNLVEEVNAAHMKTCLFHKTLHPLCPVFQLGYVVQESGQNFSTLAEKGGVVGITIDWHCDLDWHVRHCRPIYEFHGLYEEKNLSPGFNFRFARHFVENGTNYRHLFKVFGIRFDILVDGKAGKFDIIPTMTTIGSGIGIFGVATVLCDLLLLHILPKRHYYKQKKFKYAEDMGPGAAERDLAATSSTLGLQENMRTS
Sequence of UniProt Q9UM73 (whole entry, looked up): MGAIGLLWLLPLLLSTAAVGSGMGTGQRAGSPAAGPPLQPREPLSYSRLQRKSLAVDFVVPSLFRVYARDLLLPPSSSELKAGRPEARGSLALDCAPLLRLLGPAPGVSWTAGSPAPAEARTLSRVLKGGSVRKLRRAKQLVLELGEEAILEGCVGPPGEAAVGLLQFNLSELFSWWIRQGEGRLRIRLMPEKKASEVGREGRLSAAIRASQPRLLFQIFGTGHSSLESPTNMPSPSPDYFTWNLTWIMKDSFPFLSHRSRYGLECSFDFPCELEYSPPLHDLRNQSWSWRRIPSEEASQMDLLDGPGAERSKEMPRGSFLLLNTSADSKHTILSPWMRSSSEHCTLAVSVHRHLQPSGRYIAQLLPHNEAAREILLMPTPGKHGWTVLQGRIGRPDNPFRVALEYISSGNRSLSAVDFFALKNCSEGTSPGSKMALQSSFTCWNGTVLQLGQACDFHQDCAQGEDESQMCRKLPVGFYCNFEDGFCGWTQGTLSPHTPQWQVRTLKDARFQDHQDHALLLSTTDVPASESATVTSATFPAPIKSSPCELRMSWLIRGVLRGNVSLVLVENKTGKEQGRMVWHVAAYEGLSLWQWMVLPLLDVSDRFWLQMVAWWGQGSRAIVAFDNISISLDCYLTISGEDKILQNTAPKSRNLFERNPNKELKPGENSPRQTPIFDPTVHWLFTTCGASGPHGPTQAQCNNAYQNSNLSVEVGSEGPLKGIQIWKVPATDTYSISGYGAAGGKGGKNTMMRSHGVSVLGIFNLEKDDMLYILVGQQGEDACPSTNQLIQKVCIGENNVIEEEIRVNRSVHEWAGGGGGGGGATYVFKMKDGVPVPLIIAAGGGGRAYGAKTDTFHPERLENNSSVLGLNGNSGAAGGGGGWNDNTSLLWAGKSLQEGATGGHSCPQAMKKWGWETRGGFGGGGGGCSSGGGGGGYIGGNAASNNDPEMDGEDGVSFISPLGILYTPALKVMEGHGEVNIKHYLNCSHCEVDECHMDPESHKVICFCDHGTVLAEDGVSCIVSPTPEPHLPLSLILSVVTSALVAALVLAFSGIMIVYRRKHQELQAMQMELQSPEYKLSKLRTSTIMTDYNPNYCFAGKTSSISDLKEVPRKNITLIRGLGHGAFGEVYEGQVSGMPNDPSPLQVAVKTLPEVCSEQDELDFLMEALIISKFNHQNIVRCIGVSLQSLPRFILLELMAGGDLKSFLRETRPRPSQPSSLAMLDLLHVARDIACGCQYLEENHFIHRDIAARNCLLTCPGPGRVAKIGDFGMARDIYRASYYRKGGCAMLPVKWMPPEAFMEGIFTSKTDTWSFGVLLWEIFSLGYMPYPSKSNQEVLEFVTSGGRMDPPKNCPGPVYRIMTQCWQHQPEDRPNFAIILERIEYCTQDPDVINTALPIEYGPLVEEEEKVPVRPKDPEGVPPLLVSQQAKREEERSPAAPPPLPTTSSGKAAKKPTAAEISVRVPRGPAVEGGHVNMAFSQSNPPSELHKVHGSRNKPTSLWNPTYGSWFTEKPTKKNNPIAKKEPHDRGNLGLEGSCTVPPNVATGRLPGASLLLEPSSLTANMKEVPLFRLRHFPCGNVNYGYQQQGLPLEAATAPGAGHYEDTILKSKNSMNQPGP
Sequence of UniProt Q8IVV7 (whole entry, looked up): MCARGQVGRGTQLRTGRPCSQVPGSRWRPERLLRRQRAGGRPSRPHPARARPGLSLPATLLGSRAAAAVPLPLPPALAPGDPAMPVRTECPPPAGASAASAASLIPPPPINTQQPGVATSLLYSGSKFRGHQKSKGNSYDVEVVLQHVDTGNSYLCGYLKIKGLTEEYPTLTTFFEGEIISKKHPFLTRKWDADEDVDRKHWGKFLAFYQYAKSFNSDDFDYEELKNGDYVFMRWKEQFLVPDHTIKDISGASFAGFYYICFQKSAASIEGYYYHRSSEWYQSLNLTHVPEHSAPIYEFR
Sequence of UniProt Q9EP73 (whole entry, looked up): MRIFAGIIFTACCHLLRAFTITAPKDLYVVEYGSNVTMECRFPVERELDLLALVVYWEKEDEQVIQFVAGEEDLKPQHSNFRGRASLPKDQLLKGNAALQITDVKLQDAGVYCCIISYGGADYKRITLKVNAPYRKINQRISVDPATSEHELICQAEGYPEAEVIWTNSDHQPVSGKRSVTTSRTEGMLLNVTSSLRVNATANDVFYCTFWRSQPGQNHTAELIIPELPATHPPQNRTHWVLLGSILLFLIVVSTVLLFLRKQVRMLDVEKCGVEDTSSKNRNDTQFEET
Sequence of UniProt Q9NZQ7 (whole entry, looked up): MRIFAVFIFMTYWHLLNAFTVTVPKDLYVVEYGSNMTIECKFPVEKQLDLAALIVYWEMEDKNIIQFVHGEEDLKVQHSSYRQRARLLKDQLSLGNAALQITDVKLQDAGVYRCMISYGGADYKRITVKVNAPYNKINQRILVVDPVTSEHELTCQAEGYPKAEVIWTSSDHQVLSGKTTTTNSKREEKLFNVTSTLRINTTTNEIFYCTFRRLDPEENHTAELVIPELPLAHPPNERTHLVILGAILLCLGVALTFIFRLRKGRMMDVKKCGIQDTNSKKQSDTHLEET

Structure (SMILES) | tested on | assay | test system | setting | scale | endpoint | value
Nc1ncnc2c1ncn2[C@@H]1O[C@H](COP(=O)(O)CP(=O)(O)OP(=O)(O)O)[C@@H](O)[C@H]1O | P2X purinoceptor 1 (P2RX1, Homo sapiens, UniProt P51575) | calcium influx | – | 100 nM | relative to: ionomycin response | calcium influx | 46.9% and 55% and 36.8% and 32.2%
CCC(C)(NCCc1cccc(Cl)c1)c1cccc(NC2=CC(=O)N(C3CCC(=O)NC3=O)C2=O)c1 (stereo not drawn) | Cereblon/Ikaros (Homo sapiens, UniProt Q13422+Q96SW2) | protein degradation, degrader, HiBiT luminescence | Jurkat | – | – | Dmax | 71%
Oc1ccccc1-c1n[nH]cc1-c1ccnc2ccccc12 | MKC1 | kinase binding, MIB/MS competition | Candida albicans lysate | 10 µM | relative to: DMSO, negative = stronger binding | log2 fold change | 0.27
CSc1ccc2c(c1)N(CCC1CCCCN1C)c1ccccc1S2 (stereo not drawn) | Potassium channel subfamily K member 2 (KCNK2, Homo sapiens, UniProt O95069) | PIP2 binding, BRET competition | – | with: FL-PIP2 500 nM | – | Hill slope | 1.14 ± 0.15
C[S+](CC[C@H](N)C(=O)[O-])C[C@H]1O[C@@H](n2cnc3c(N)ncnc32)[C@H](O)[C@@H]1O (stereo partly drawn) | Histone-lysine N-methyltransferase 2C (KMT2C, Homo sapiens, UniProt Q8NEZ4) | substrate, enzyme-coupled methylation | – | with: H3 peptide 200 µM | – | apparent Km | 12.8 ± 1.3 µM
O=c1nc(SCc2cc(F)cc(C(F)(F)F)c2)nc(SCc2ccc3ccccc3n2)[nH]1 | TOP2A | decatenation | – | 31.25 µM, replicate 1 | – | decatenated DNA | 0%
O=C(Nc1cccc2c(=O)cc(-c3nnn[nH]3)oc12)c1ccc(OCCCCc2ccccc2)cc1 | LRRC8A/LRRC8C (Homo sapiens, UniProt Q8IWT6+Q8TDW0, Y124F/Y126F) | whole-cell patch clamp | HCT116 LRRC8-/- transfected | at -100 mV | – | Hill coefficient | 1
CN1CCC(Nc2nc(Nc3ccc(Oc4ccccc4)cc3)c3c(=O)[nH]cc(Br)c3n2)CC1 | PKN1 | inhibitor | – | – | – | Hill slope | -0.723
Nc1ncc2ncn([C@@H]3O[C@@H]4COP(=O)(O)O[C@H]4[C@H]3O)c2n1 | anti-cGMP antibody | antibody binding, competitive cGMP EIA | – | concentration not given, acetylated samples | relative to: EC50 cGMP over EC50 cpd, higher = stronger binding | relative binding affinity | 0.0076
Cc1nc(CSc2nc(SCc3ccc(C(C)C)cc3)nc(=O)[nH]2)cs1 | TOP2A | DNA cleavage | – | 31.25 µM, replicate 2 | – | linear DNA | 0%
C[C@@H]1C[C@H](Nc2ccccc2)c2cc(F)ccc2N1C(=O)c1ccc(C#N)nc1 | Ecdysone receptor (Aedes albopictus, UniProt Q9U3Y4) | ligand binding, inhibitor | intact cells | with: [3H]ponasterone A | direction not given | pIC50 Z-score | 1.36
[Zn+2] | Otop1 (Mus musculus, UniProt Q80VM9) | acid-evoked current, inhibitor, whole-cell patch-clamp | HEK293T | 0.01 mM, pH 5.5, unit not given | relative to: current before compound | remaining current | 0.79
O=C(Nc1cccc2ncccc12)C1CCCN(S(=O)(=O)c2cccs2)C1 (stereo not drawn) | AASS, LKR domain (Homo sapiens, UniProt Q9UDR5) | binding, surface plasmon resonance | – | 15 µM | – | SPR response | 3.89 RU
O=C(O)c1ccc(O)cc1 | BEST2 | whole-cell patch clamp | HEK293 transiently expressing channel | concentration not given, membrane potential -20 mV | – | current density | -49.4 pA/pF and -35.5 pA/pF and -26.6 pA/pF and -48.6 pA/pF and -64.8 pA/pF and -25.6 pA/pF and -52.1 pA/pF
COc1cc(N2CCC(N3CCN(C)CC3)CC2)ccc1Nc1ncc(Cl)c(Nc2ccccc2P(C)(C)=O)n1 | GID4/ALK (Homo sapiens, UniProt Q8IVV7+Q9UM73) | ternary complex formation | HEK293T | 50 nM, 6 h | relative to: normalised ratio | NanoBRET ratio | 1.06 and 1.14 and 0.876
O=c1nc(SCc2cc(F)cc(C(F)(F)F)c2)nc(SCc2ccc3nc(Cl)ccc3c2)[nH]1 | TOP2A | DNA cleavage, competition with etoposide | – | 31.25 µM, with: etoposide 50 µM | – | linear DNA | 11.4% and 9.55%
CC1=C(/C=C/C(C)=C/C=C/C(C)=C/C=O)C(C)(C)CCC1 | Rhodopsin (RHO, Bos taurus, UniProt P02699, T94I) | retinal entry, Trp FRET | lipid bicelles | 28 °C, T94I mutant | relative to: wild-type rhodopsin | relative kon | 0.823 ± 0.3
COc1ccc(C(=O)/C=C/c2cccc(-c3cccc(-c4ccc(CNCc5c(C)cc(C)[nH]c5=O)c(OC)n4)c3C)c2)cc1 | CD274 | degrader, western blot | HL-60 | 1 µM | – | degradation | < 5%
CCS(=O)(=O)c1nc(C)cc(-c2ccccc2)n1 | Importin subunit beta-1 (KPNB1, Homo sapiens, UniProt Q14974, C585A) | thermal shift | – | 30 µM, 2 h | – | Tm2 | 50.6 °C
O=c1nc(SCc2ccc(C(F)(F)F)cc2)nc(SCc2ccc3sccc3c2)[nH]1 | TOP2A | decatenation | – | 15.6 µM | – | mean decatenated DNA | 82.6%
CC(=O)NCCCC[C@H](NC(=O)[C@H](CC(=O)O)NC(=O)[C@H](CO)NC(C)=O)C(=O)Nc1ccc2c(C)cc(=O)oc2c1 | human Y386F/Y782F mutant enzyme | substrate, fluorogenic | – | – | – | Km | 69 ± 3 µM
O=c1nc(SCc2cc(F)cc(C(F)(F)F)c2)nc(SCc2ccc3ncsc3c2)[nH]1 | TOP2A | decatenation | – | 31.25 µM | – | mean decatenated DNA | 62.7%
CCCCCCCNCCc1ccc2[nH]cnc2c1 | ATP2A2 (Sus scrofa, UniProt P11607) | – | pig microsomes | concentration not given | – | ATPase activity | no effect
CC(C)c1ccc(CSc2nc(SCc3ccc4sccc4c3)[nH]c(=O)n2)cc1 | TOP2A | decatenation | – | 31.25 µM | – | mean decatenated DNA | 0%

Structure (SMILES) | tested on | assay | test system | setting | scale | endpoint | value
Nc1ccc(C(=O)O)cc1 | BEST2 | whole-cell patch clamp | HEK293 transiently expressing channel | concentration not given, membrane potential -100 mV | – | current density | -396 pA/pF and -74.3 pA/pF and -254 pA/pF and -335 pA/pF and -175 pA/pF and -295 pA/pF
O=C(Nc1ccc2c(O)cc(S(=O)(=O)O)cc2c1)Nc1ccc2c(O)cc(S(=O)(=O)O)cc2c1 | HBL-1 | – | – | 1 µM, 120 h | – | viability | 98.2%
COCCC(=O)N1CCC(Oc2ccccc2)C1 (stereo not drawn) | DNA (cytosine-5)-methyltransferase 3A, PWWP domain (DNMT3A, Homo sapiens, UniProt Q9Y6K1) | binding, affinity selection mass spectrometry | – | – | relative to: other proteins in batch | fold enrichment | 0.719
CCCCCCCC/C=C\CCCCCCCC(=O)NCCc1ccc(O)c(O)c1 | Transient receptor potential cation channel subfamily V member 1 (Trpv1, Mus musculus, UniProt Q704Y3, T551V) | ion current, agonist, whole-cell patch clamp | – | T551V | – | Hill coefficient | 2.35 ± 0.26
CC1(COc2ccc3c(c2)ncn3-c2ccc3cccc(N4CCC(N)CC4)c3n2)COC1 | PKN1 | inhibitor | – | – | – | Hill slope | -0.646
Cc1c(COc2ccc(CN3CCCCC3C(=O)NCCNC(=O)CN(C)CCCC34CCC(c5ccccc53)c3ccccc34)cc2Br)cccc1-c1ccccc1 (stereo not drawn) | CD274 | degrader, western blot | HL-60 | 1 µM | – | degradation | < 5%
C=C1CN(S(=O)(=O)c2ccc(C)cc2)CCCN(Cc2ccccc2)CCCN(S(=O)(=O)c2ccc(C)cc2)C1 | Protein transport protein Sec61 subunit alpha isoform 1 (Homo sapiens, UniProt P61619) | Sec61-dependent translocation, inhibitor, measured: CD4 signal peptide-FLuc reporter | HEK293 | concentration not given, 6 h | relative to: mock | FLuc/RLuc ratio | 2.13
CCN1CCC[C@H]1CNC(=O)c1c(O)c(Cl)cc(Cl)c1OC | KiSS-1 receptor (KISS1R, Homo sapiens, UniProt Q969F8) | receptor activation, TANGO luminescence | – | concentration not given, unconfirmed screen | relative to: vehicle control | log2 fold change | -0.696
CC(C)N(CCC(=O)c1ccc2ccccc2c1)Cc1ccccc1 | Protein-glutamine gamma-glutamyltransferase (TGM2, Homo sapiens, UniProt P21980) | enzyme activity, inhibitor | – | concentration not given, 0.02% Triton X-100 | – | inhibitory potency | no effect
COc1cc2c(NC3CCN(C4CCCCC4)CC3)nc(N3CCCN(C(C)C)CC3)nc2cc1OCCCN1CCCCC1 | HBL-1 | – | – | 0.5 µM, 120 h | – | viability | 142%
COc1cc(F)ccc1-c1ncnc(Nc2cccc(C[S@](C)(=N)=O)c2)n1 | Phosphatidylinositol 4-phosphate 3-kinase C2 domain-containing subunit alpha (PIK3C2A, Homo sapiens, UniProt O00443) | kinase activity | – | 10 µM, with: 10 µM ATP | – | remaining activity | 99%
CC[C@@H](C)[C@@H](NC(=O)[C@@H](Cc1ccc(O)cc1)NC(=O)[C@H]1CCCN1C(=O)[C@@H](CCCNC(=N)N)NC(=O)[C@H](N)Cc1c[nH]cn1)C(=O)N[C@H](C)C(=O)N[C@H](Cc1c[nH]cn1)C(=O)N[C@H](CCCNC(=N)N)C(=O)N[C@@H](C(=O)N[C@H](Cc1ccc(O)cc1)C(=O)N[C@H](CO)C(=O)N[C@H](Cc1ccccc1)C(N)=O)C(C)C | Programmed cell death 1 ligand 1, with PD-1 (Cd274, Mus musculus, UniProt Q9EP73) | PD-1-Fc binding | B16 | concentration not given, 48 h | – | PD-L1 blocking rate | 12.1% and 6.14% and 18.9%
CC1(C)O[C@@H]2[C@@H](CO[C@@]3(COS(N)(=O)=O)OC(C)(C)O[C@@H]23)O1 | Carbonic anhydrase 4 (CA4, Homo sapiens, UniProt P22748) | ITC | – | concentration not given, 25 °C | – | intrinsic binding ΔG | -54.2 kJ/mol
O=C(COP(=O)(O)O)[C@@H](O)[C@H](O)[C@H](O)COP(=O)(O)O | Aminopeptidase B (Homo sapiens, UniProt Q9H4A4) | thermal proteome profiling, measured: RNPEP | HepG2 cell lysate | concentration not given, 57 over 37 °C, mean | relative to: compound over control | thermal stability ratio | 0.425
CCCCCCCC(=O)c1cc(OC)c(OC)c(OC)c1CC(=O)OCC | Retinoic acid receptor alpha (RARA, Homo sapiens, UniProt P10276) | reporter gene, Gal4 hybrid reporter | – | 10 µM | relative to: vehicle | activation | 0.76 fold
Cc1ccccc1-c1ccc([C@H]2[C@@H](CO)N3CCCCN(C(=O)Nc4ccccc4)C[C@@H]23)cc1 | Insulin-degrading enzyme (IDE, Homo sapiens, UniProt P14735) | enzyme activity, inhibitor, fluorogenic kinetic | – | with: Mca-RPPGFSAFK(Dnp)-OH substrate | – | EC50 | 2900 nM
Cc1n[nH]c2ccc(-c3cc(OC[C@@H](N)Cc4ccccc4)cnc3-c3ccoc3)cc12 | MKC1 | kinase binding, competitor, MIB/MS competition, measured: MKC1 | Candida albicans cell lysate | 100 nM | relative to: DMSO | log2 fold change | -0.00282
COc1cc(Oc2ccc(CNCc3cnc4nc(N)nc(N)c4n3)cc2)cc(OC)c1OC | Pteridine reductase 1 (Leishmania major, UniProt Q01782) | – | – | hDHFR weight 10 | relative to: LmPTR1, LmDHFR over hDHFR, 1.0 selective, 0.0 non-selective | partition index | 0.98
C=CC(=O)N1CCC[C@@H](n2nc(-c3ccc(Oc4ccccc4)cc3)c3c(N)ncnc32)C1 | Fibroblast growth factor receptor 1 (FGFR1, Homo sapiens, UniProt P11362) | – | – | 10 µM | – | remaining activity | 64.1%
O=C(O)c1ccc([N+](=O)[O-])cc1 | BEST2 | whole-cell patch clamp | HEK293 transiently expressing channel | concentration not given, membrane potential 40 mV | – | current density | 130 pA/pF and 101 pA/pF and 36.3 pA/pF and 124 pA/pF and 152 pA/pF
COc1ccc(F)cc1C(=O)NCc1ccc(-c2nn([C@@H](C)C(F)(F)F)c(N)c2C(N)=O)cc1 | Tyrosine-protein kinase BTK (BTK, Homo sapiens, UniProt Q06187) | differential scanning fluorimetry | – | with: BTK inhibitor 100 µM | – | second melting temperature | 54 °C
Cc1nc(CSc2nc(SCc3ccc(C(F)(F)F)cc3)nc(=O)[nH]2)cs1 | TOP2A | decatenation | – | 7.8 µM, replicate 2 | – | decatenated DNA | 97.3%
Cc1ccccc1C1CC(=O)c2c(C)nc(N)nc2C1 (stereo not drawn) | DNA damage-binding protein 1 (DDB1, Homo sapiens, UniProt Q16531) | binding, affinity selection mass spectrometry | – | – | relative to: other proteins in batch | fold enrichment | 0.895
O=C1NC(=O)/C(=C/c2ccc(OCCNc3nc4c(cnn4C4CCCC4)c(=O)[nH]3)c(F)c2)S1 | cGMP-dependent 3',5'-cyclic phosphodiesterase (PDE2A, Homo sapiens, UniProt O00408) | – | – | – | relative to: PDE2A over PDE9 | selectivity ratio | 53 fold

For quick reference, copied from above:
Structure (SMILES) | tested on | assay | test system | setting | scale | endpoint | value
C[C@@H]1C[C@H](Nc2ccccc2)c2cc(F)ccc2N1C(=O)c1ccc(C#N)nc1 | Ecdysone receptor (Aedes albopictus, UniProt Q9U3Y4) | ligand binding, inhibitor | intact cells | with: [3H]ponasterone A | direction not given | pIC50 Z-score | 1.36
O=c1nc(SCc2cc(F)cc(C(F)(F)F)c2)nc(SCc2ccc3ncsc3c2)[nH]1 | TOP2A | decatenation | – | 31.25 µM | – | mean decatenated DNA | 62.7%
Nc1ncnc2c1ncn2[C@@H]1O[C@H](COP(=O)(O)CP(=O)(O)OP(=O)(O)O)[C@@H](O)[C@H]1O | P2X purinoceptor 1 (P2RX1, Homo sapiens, UniProt P51575) | calcium influx | – | 100 nM | relative to: ionomycin response | calcium influx | 46.9% and 55% and 36.8% and 32.2%
CC(C)c1ccc(CSc2nc(SCc3ccc4sccc4c3)[nH]c(=O)n2)cc1 | TOP2A | decatenation | – | 31.25 µM | – | mean decatenated DNA | 0%
